Published values of several laboratories.
Parts stem from different laboratories: compare values within a part only.
Sequence of UniProt Q52WX2 (whole entry, looked up): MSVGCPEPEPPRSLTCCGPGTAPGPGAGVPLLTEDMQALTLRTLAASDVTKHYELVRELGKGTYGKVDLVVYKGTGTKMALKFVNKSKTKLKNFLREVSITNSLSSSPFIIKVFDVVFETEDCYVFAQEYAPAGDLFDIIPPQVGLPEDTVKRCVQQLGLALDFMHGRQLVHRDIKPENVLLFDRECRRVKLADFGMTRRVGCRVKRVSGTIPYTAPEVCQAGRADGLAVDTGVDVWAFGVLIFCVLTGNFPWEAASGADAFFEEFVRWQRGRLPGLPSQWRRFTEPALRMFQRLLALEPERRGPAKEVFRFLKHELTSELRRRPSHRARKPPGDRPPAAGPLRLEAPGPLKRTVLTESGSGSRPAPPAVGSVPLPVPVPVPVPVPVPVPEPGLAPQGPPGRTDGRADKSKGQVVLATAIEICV
Sequence of UniProt O00329 (whole entry, looked up): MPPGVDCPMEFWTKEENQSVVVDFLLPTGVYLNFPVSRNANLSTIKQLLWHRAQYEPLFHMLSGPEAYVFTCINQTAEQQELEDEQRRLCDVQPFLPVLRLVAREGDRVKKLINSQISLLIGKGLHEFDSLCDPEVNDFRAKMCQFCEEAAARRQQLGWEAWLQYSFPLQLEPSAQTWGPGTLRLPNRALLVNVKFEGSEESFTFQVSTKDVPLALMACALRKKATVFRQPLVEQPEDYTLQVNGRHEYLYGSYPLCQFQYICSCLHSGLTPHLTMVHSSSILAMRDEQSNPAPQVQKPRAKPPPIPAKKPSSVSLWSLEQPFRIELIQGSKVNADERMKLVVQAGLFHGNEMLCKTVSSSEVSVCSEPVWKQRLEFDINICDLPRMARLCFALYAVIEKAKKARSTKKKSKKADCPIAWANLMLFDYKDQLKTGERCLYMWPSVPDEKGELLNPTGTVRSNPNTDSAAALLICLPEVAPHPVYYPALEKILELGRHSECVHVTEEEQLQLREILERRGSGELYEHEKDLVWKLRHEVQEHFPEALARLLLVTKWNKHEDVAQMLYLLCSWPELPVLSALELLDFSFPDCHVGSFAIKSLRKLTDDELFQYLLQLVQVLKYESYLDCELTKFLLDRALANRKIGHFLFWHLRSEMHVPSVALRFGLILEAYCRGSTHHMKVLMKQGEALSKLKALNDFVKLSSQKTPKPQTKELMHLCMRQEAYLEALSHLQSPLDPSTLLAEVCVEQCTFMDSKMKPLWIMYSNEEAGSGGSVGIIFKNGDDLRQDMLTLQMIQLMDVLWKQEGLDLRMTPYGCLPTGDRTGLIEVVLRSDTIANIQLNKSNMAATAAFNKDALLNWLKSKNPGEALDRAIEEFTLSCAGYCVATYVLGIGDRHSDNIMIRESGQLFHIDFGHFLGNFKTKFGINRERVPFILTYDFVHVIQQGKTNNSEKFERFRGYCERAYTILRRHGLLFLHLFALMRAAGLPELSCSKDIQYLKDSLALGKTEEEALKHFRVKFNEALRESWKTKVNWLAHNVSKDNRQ
Sequence of UniProt P08631 (whole entry, looked up): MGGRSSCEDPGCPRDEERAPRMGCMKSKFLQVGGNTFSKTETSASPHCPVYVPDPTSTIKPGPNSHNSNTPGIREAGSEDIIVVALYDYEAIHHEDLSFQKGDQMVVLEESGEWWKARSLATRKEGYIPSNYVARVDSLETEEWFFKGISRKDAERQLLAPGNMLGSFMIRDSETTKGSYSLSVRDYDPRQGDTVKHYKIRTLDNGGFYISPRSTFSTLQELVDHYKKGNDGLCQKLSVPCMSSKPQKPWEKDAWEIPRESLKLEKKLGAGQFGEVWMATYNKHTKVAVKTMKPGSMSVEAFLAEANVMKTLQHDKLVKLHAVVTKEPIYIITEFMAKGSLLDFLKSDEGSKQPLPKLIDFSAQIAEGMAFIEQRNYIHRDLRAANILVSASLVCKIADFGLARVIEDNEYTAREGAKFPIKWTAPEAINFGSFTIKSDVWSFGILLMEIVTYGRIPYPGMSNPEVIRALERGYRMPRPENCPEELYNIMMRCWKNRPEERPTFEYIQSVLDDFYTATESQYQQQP
Sequence of UniProt O75582 (whole entry, looked up): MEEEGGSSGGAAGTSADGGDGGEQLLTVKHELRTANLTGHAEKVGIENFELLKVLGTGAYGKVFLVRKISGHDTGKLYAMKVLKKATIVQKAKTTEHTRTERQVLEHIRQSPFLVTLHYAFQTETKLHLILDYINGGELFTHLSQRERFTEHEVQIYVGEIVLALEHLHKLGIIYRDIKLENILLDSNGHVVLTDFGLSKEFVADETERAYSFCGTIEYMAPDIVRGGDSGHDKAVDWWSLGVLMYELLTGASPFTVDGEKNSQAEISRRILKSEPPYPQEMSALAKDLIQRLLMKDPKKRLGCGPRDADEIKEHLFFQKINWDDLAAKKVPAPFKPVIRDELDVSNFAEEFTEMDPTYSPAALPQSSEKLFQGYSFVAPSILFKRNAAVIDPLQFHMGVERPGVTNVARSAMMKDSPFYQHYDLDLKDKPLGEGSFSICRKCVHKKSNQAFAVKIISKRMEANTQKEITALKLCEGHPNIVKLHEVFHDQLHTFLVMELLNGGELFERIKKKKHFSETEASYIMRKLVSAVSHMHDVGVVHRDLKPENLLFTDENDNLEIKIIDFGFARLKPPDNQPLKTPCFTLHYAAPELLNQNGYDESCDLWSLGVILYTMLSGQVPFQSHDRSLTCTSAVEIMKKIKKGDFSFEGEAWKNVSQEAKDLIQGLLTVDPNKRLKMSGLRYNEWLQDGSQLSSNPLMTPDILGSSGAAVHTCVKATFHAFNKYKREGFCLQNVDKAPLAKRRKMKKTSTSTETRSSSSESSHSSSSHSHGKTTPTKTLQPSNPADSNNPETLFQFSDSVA
Sequence of UniProt Q96GD4 (whole entry, looked up): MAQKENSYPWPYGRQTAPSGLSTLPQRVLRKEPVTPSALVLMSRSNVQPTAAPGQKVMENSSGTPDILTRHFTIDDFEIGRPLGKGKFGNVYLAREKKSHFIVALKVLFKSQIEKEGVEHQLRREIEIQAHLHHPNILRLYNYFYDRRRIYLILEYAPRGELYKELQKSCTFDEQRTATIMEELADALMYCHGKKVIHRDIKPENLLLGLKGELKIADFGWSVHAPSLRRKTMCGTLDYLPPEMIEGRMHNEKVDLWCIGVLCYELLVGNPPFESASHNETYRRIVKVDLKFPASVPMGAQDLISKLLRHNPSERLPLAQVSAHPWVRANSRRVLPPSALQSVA

Block 1 — action: inhibitor; concentration: 1 µM
Structure (SMILES): C=CC(=O)N1CCC[C@@H](n2nc(-c3ccc(Oc4ccccc4)cc3)c3c(N)ncnc32)C1
target | effect on | inhibition [%]
Aurora kinase B (AURKB, Homo sapiens, UniProt Q96GD4) | enzyme activity | 3
CDK13 (Homo sapiens, UniProt Q14004) | enzyme activity | 39
PIK3CD (Homo sapiens, UniProt O00329) | enzyme activity | 49
Ribosomal protein S6 kinase alpha-5, C-terminal kinase domain (RPS6KA5, Homo sapiens, UniProt O75582) |  | 11
FLT3 (Homo sapiens, UniProt P36888, F691L/ITD) |  | 41
PIKFYVE (Homo sapiens, UniProt Q9Y2I7) | enzyme activity | 0
SBK1 (Homo sapiens, UniProt Q52WX2) | enzyme activity | 40
HCK (Homo sapiens, UniProt P08631) | enzyme activity | 98

Block 2 — cell line: HaCaT; concentration: 100 µM; time: 36 h
Structure (SMILES) | viability [%]
CC(c1cc2ccccc2s1)N(O)C(N)=O (stereo not shown) | 81.5
Nc1nc(F)nc2c1ncn2[C@@H]1O[C@H](COP(=O)(O)O)[C@@H](O)[C@@H]1O | 64.6
Oc1c(I)cc(I)c2cccnc12 | 10.4
CC[C@@H]([C@H](C)O)n1ncn(-c2ccc(N3CCN(c4ccc(OC[C@@H]5CO[C@@](Cn6cncn6)(c6ccc(F)cc6F)C5)cc4)CC3)cc2)c1=O | 37
NC(CO)C(=O)NNCc1ccc(O)c(O)c1O (stereo not shown) | 107
CC1(C)O[C@H]2CC(=O)OC[C@]23[C@H]2CC[C@@]4(C)[C@H](c5ccoc5)OC(=O)[C@H]5O[C@]54[C@]2(C)C(=O)C[C@@H]13 | 64.7
OCC(O)CN1CCN(c2ccccc2)CC1 (stereo not shown) | 108
CC(=O)Oc1ccc(C(c2ccc(OC(C)=O)cc2)c2ccccn2)cc1 | 5.68
CN1CCC[C@@H]1Cc1c[nH]c2ccc(CCS(=O)(=O)c3ccccc3)cc12 | 52.2

Block 3 — effect on: ligand displacement; technique: radioligand; concentration: 10 µM
Target: 5-hydroxytryptamine receptor 1B (HTR1B, Homo sapiens, UniProt P28222)
Sequence of UniProt P28222 (whole entry, looked up): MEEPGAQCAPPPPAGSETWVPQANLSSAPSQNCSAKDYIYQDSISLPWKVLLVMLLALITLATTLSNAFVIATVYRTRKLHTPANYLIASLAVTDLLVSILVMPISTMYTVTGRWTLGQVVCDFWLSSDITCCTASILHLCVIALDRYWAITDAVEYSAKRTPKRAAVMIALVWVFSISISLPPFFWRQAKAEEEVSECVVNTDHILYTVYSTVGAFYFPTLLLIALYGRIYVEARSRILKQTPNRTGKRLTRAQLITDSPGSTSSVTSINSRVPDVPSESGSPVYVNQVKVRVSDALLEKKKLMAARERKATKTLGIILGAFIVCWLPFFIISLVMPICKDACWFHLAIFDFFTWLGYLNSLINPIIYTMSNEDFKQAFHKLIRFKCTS
SMILES | inhibition [%]
C[C@@]1(Cc2ccc(C#N)cc2)C(=O)N(c2cc(Cl)cc(Cl)c2)c2ncc(C(=O)NC3(c4nc(C5CCC5)no4)CC3)n21 | 17.5
COc1cccc(NC(=O)c2nc3scc(CN(C)Cc4ccccc4)c3c(=O)[nH]2)c1 | -2.26
CC1=C(C#N)C(c2ccc3c(c2)c(NC(=O)c2ccccc2C)nn3C)C(C#N)=C(C)N1 | 4.12
C[C@H](c1ccc(F)cc1)N(Cc1cccc(C(=O)O)c1)C(=O)c1cnc2ccccc2c1 | 4.38
Cn1cncc1[C@@](O)(COc1ccc(C#N)cc1-c1ccc(OC(F)(F)F)cc1)c1ccc(C#N)cc1 | 3.34
CO[C@H]1CC[C@H](CNc2ccc(S(=O)(=O)NC(=O)c3ccc(N4CCN(CC5=C(c6ccc(Cl)cc6)CC(C)(C)CC5)CC4)cc3Oc3cnc4[nH]ccc4c3)cc2[N+](=O)[O-])CC1 | 6.23
O=C1CCc2cc(Nc3cc(OC4CCOCC4)c([N+](=O)[O-])cc3Cl)ccc2N1 | 14.3
Cc1c(NC(=O)c2cc(C(N)=O)nc3cc(F)ccc23)c(C(F)(F)F)nn1Cc1ccc(C#N)cc1 | 2.6
COc1cc(-c2cn(C3CCc4c(F)cccc4N(CC(F)(F)F)C3=O)nn2)ccc1-n1cnc(C)c1 (stereo not shown) | 35
CC(C)(O)c1cncc(-c2nc3ccc(F)cc3n2C2CC2)c1 | 16.8
Cc1cc(Nc2nccc(C)n2)cc(-c2cnc([C@@]3(O)CC[C@H](C(=O)O)C(C)(C)C3)s2)c1 | 11.6

Block 4 — effect on: enzyme activity; action: inhibitor; concentration: 0.5 µM; baseline: control
Target: Casein kinase II subunit alpha' (CSNK2A2, Homo sapiens, UniProt P19784)
Sequence of UniProt P19784 (whole entry, looked up): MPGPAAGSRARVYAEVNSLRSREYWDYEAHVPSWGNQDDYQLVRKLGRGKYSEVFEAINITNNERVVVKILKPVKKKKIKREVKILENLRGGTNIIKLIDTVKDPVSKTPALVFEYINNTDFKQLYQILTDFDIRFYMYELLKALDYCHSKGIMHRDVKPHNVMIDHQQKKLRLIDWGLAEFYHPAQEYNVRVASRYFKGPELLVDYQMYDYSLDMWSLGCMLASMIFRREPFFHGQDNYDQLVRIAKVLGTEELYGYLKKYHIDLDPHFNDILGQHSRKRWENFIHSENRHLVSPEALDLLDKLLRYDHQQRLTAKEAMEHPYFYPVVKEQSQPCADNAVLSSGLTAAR
SMILES | remaining activity
Oc1ccc(-c2nc(-c3ccncc3)c(-c3ccc(F)cc3)[nH]2)cc1 | 95.9%
CCOC(=O)c1c(C)[nH]c(/C=C2\C(=O)Nc3ccccc32)c1C | 94.7%
COc1cc2ncnc(Nc3ccc(Oc4ccccc4)cc3)c2cc1OC | 98.2%
Cc1ccc(NC(=O)c2ccc(CN3CCN(C)CC3)cc2)cc1Nc1nc(-c2cccnc2)cs1 | 86.7%
CC(C)[C@H](CO)Nc1nc(Nc2cc(N)cc(Cl)c2)c2ncn(C(C)C)c2n1 | 106%
O=C1NC(=O)C(c2cn(CCCn3ccnc3)c3ccccc23)=C1Nc1ccccc1 | 87.6%
COc1ccc(OC)c2c(=S)c3ccccc3[nH]c12 | 87.1%
Cc1ccc(Nc2nccc(N(C)c3ccc4c(C)n(C)nc4c3)n2)cc1S(N)(=O)=O | 99.8%
O=C(Nc1cccc(Nc2cc(Nc3cccc(C(F)(F)F)c3)ncn2)c1)C1CC1 | 94.9%
Cc1nc(-c2ccccc2)c(-c2ccncc2)o1 | 89.8%
NCCNc1ncc(C(N)=O)c(Nc2cccc(C(F)(F)F)c2)n1 | 89.8%
O=C(O)c1ccc2c3c1cccc3c(=O)n1c3ccccc3nc21 | 13.3%
Cn1c2ccccc2c2c3c(c4c5ccccc5n(CCC#N)c4c21)CNC3=O | 104%
O=c1c2ccccc2[nH]c(=S)n1CCN1CCC(=C(c2ccc(F)cc2)c2ccc(F)cc2)CC1 | 97.7%
CO[C@H]1C[C@@H]2CC[C@@H](C)[C@@](O)(O2)C(=O)C(=O)N2CCCC[C@H]2C(=O)O[C@H]([C@H](C)C[C@@H]2CC[C@@H](O)[C@H](OC)C2)CC(=O)[C@H](C)/C=C(\C)[C@@H](O)[C@@H](OC)C(=O)[C@H](C)C[C@H](C)/C=C/C=C/C=C/1C | 94.2%
